Published values gathered from unrelated publications.
Parts stem from different laboratories: compare values within a part only.
UniProt Q9UM73, sequence (whole entry, unmodified, looked up): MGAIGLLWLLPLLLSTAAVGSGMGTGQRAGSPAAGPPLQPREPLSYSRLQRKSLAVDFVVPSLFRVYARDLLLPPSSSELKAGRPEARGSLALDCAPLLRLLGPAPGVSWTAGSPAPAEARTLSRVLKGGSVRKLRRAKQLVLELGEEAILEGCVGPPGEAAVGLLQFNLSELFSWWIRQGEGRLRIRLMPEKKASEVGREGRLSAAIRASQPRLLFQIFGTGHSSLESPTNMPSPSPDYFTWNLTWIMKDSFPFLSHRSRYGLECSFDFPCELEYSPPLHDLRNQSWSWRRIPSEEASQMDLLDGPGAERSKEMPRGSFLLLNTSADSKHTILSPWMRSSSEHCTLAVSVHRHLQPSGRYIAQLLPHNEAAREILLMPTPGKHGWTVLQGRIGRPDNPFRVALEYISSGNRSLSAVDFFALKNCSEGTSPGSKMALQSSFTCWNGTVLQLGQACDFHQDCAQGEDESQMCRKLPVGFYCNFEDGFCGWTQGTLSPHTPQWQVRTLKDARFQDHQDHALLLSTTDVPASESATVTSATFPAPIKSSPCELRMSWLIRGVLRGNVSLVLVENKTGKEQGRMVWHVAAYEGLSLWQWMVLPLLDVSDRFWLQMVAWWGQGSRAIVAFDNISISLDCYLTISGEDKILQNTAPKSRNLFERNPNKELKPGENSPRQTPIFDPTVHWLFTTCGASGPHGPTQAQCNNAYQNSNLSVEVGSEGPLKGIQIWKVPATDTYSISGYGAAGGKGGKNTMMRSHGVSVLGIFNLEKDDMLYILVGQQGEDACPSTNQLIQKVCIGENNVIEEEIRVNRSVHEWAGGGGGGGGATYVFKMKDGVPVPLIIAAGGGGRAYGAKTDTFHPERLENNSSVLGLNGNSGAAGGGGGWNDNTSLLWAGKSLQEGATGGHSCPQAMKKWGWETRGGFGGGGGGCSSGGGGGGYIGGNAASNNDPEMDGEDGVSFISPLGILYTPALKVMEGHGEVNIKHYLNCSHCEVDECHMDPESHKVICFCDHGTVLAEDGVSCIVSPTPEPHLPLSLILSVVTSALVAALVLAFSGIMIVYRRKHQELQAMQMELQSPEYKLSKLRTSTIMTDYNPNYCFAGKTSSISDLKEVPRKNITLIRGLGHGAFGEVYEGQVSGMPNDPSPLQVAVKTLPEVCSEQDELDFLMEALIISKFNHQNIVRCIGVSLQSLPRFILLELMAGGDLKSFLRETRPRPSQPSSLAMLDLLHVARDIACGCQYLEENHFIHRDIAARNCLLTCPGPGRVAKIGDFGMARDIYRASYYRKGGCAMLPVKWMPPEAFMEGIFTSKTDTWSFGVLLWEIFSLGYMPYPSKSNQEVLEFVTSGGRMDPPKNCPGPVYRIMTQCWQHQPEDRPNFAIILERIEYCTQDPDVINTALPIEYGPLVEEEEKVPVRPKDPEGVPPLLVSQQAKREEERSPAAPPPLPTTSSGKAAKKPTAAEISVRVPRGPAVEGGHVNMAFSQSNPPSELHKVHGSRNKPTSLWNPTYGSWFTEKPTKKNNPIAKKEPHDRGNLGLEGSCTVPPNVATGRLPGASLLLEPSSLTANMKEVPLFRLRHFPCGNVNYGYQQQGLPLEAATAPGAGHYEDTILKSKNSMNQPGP
UniProt P42336, sequence (whole entry, unmodified, looked up): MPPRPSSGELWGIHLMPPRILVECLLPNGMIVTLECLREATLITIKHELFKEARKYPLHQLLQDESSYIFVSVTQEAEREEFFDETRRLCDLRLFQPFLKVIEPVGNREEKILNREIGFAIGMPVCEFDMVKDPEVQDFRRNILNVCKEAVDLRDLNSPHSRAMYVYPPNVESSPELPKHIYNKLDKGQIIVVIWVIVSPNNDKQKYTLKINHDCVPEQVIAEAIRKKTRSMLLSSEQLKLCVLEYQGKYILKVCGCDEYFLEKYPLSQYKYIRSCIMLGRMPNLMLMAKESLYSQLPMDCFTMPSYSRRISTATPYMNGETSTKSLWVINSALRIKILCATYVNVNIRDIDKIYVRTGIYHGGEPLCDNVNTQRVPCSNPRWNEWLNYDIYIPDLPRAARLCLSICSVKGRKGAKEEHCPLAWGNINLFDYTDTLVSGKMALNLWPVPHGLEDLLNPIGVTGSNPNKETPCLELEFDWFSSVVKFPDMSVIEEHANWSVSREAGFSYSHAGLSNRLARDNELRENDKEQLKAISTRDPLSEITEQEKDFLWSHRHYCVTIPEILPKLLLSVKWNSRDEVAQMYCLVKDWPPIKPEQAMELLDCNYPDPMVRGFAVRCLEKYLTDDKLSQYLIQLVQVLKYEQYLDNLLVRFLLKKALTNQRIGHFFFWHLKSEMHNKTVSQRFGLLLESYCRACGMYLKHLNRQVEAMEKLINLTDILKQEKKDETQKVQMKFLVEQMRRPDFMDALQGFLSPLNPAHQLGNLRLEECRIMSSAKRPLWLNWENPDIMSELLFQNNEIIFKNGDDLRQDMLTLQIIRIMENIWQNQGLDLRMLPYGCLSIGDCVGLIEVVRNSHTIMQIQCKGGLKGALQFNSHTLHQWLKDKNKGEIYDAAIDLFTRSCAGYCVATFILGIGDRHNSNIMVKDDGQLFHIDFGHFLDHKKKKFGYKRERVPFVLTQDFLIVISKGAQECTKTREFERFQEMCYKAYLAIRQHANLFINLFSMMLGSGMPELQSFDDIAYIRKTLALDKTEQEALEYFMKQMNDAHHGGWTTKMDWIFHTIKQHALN
UniProt P17948, sequence (whole entry, looked up): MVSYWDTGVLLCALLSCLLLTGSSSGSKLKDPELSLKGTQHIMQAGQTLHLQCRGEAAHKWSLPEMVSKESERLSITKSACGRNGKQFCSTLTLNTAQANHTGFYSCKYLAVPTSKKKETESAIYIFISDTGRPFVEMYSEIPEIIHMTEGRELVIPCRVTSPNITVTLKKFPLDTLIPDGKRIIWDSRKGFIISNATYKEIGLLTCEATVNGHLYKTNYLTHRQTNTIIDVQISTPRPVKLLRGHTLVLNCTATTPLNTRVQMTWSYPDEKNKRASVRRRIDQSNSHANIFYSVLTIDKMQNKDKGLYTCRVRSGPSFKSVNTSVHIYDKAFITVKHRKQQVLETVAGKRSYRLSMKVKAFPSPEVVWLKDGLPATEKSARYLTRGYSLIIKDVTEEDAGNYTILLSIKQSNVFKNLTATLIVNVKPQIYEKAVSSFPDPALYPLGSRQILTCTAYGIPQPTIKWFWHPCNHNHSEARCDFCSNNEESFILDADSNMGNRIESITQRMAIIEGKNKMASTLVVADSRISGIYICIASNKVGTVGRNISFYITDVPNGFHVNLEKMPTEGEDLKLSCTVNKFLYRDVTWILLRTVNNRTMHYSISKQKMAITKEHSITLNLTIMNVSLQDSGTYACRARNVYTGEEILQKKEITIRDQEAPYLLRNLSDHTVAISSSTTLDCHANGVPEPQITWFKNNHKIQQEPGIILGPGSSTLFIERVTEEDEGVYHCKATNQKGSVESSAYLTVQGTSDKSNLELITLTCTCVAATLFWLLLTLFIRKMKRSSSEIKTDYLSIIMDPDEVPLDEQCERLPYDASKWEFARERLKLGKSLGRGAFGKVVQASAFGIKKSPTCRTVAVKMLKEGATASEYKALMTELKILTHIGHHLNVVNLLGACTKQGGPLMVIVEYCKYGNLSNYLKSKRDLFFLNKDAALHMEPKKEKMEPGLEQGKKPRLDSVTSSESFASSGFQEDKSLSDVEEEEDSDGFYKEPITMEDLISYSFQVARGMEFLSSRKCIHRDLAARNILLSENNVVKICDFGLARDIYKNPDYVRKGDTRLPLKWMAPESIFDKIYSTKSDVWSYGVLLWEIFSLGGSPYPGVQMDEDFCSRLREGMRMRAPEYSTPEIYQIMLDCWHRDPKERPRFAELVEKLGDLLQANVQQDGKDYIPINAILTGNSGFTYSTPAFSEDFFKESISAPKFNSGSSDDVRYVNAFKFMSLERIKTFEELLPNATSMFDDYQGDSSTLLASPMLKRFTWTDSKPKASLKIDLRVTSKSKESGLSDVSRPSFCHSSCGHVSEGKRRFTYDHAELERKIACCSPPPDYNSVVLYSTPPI
UniProt O95747, sequence (whole entry, looked up): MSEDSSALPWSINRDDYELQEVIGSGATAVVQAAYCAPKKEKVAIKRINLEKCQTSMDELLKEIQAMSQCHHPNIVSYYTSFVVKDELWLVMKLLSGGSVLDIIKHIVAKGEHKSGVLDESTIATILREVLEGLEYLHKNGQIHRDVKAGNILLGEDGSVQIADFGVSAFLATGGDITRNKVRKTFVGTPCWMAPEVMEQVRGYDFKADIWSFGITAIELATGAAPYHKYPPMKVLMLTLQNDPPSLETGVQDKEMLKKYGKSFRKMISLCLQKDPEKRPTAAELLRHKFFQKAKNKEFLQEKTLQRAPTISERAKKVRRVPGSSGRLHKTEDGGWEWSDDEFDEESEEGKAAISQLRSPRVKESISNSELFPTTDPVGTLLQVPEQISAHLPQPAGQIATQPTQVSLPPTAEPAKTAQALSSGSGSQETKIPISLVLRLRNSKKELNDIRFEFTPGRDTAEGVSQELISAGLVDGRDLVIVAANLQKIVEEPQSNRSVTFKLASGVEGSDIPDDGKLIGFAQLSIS
UniProt Q8TBX8, sequence (whole entry, looked up): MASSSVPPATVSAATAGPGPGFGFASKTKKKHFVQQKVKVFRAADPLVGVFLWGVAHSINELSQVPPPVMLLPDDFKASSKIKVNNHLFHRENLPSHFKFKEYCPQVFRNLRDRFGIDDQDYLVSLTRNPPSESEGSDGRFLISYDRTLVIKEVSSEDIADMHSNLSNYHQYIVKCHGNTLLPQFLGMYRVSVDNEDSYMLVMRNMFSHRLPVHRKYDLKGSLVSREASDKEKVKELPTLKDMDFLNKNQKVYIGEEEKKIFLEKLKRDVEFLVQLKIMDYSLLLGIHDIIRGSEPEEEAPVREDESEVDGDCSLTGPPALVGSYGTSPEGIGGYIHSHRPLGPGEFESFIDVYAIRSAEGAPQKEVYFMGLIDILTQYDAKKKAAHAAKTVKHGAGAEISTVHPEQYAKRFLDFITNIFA

Set 1
Cell line: A-375
Tested at: 100 µM
Time: 36 h
Endpoint: viability
SMILES = O=C(O)CCNC(=O)c1ccccc1; value = 102%
SMILES = Cc1ccsc1/C=C/C1=NCCCN1C; value = 125%
SMILES = Nc1nc(O)c2ncn(COC(CO)CO)c2n1; value = 112%
SMILES = CC[C@@H]1C(=O)OC[C@@H]1Cc1cncn1C; value = 110%
SMILES = CCCCC[C@H](O)/C=C/[C@H]1[C@H](O)CC(=O)[C@@H]1CCCCCCC(=O)O; value = 118%

Set 2
Compound: CCCCN(CCCC)C(=O)CN1C[C@@H](c2cc(OC)c3c(c2)OCO3)[C@H](C(=O)O)[C@H]1CC(C)(C)CCC
Read-out: cell-free assay
Technique: competition with immobilised ligand
Tested at: 1 µM
Endpoint: remaining binding
target = ALK (Homo sapiens, UniProt Q9UM73, L1196M); value = 100%
target = FLT1 (Homo sapiens, UniProt P17948); value = 100%
target = OXSR1 (Homo sapiens, UniProt O95747); value = 94%
target = PIP4K2C (Homo sapiens, UniProt Q8TBX8); value = 80.7%
target = PIK3CA (Homo sapiens, UniProt P42336, H1047Y); value = 92.6%
target = ITK (Homo sapiens, UniProt Q08881); value = 100%

Set 3
Species: mouse
Sample: microsomes or S9
Tested at: 2 µM
Time: 0.5 h
Endpoint: remaining compound
SMILES = NS(=O)(=O)c1ccc(CCNS(=O)(=O)Cc2ccccc2Cl)cc1; value = 86.9%
SMILES = COc1cc(=O)[nH]cc1C(=O)NCCc1cn(C)c2cc(C)ccc12; value = 1.63%
SMILES = CN1CCN(Cc2ccc(-c3cn(C(=O)OC(C)(C)C)nc3C3CCCN(C(=O)OC(C)(C)C)C3)cc2)CC1 (centres unmarked); value = 5.32%
SMILES = Cc1noc(C)c1CCC(=O)Nc1cccc2ncccc12; value = 67.6%

Set 4
Target: Serine/threonine-protein kinase BRSK2 (BRSK2, Homo sapiens, UniProt Q8IWQ3)
Read-out: enzyme activity
Action: inhibitor
Tested at: 0.5 µM
Baseline: control
Endpoint: remaining activity
Target sequence (Q8IWQ3 1-736): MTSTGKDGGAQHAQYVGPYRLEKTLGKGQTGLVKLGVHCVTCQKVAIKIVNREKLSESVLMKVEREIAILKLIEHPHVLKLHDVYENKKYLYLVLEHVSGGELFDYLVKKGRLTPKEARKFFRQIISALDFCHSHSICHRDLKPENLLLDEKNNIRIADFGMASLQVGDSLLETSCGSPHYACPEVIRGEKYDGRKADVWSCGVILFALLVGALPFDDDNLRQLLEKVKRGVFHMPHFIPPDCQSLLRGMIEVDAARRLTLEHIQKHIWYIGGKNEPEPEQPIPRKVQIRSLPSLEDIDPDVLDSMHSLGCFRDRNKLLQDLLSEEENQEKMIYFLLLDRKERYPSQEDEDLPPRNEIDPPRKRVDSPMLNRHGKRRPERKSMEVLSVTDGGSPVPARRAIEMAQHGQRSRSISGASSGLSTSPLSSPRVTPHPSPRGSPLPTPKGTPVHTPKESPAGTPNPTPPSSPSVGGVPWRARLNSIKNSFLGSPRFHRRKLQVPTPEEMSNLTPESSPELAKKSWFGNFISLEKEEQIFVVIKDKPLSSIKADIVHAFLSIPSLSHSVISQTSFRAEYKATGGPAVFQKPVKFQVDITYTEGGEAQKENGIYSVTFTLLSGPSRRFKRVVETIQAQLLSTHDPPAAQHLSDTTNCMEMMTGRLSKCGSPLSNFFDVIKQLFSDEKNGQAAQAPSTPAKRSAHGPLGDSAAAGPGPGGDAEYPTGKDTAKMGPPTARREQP
Structure (SMILES) = Cc1ccc(Nc2nccc(N(C)c3ccc4c(C)n(C)nc4c3)n2)cc1S(N)(=O)=O; value = 101%
Structure (SMILES) = O=C(Nc1cccc(Nc2cc(Nc3cccc(C(F)(F)F)c3)ncn2)c1)C1CC1; value = 95.8%
Structure (SMILES) = CN(C)c1ccc(C=C2C(=O)Nc3ccccc32)cc1; value = 93%
Structure (SMILES) = Cc1nc(-c2ccccc2)c(-c2ccncc2)o1; value = 95%
Structure (SMILES) = O=C1NC(=O)C(c2cn(CCCn3ccnc3)c3ccccc23)=C1Nc1ccccc1; value = 93.6%
Structure (SMILES) = COc1cc2ncnc(Nc3ccc(F)c(Cl)c3)c2cc1OCCCN1CCOCC1; value = 103%
Structure (SMILES) = O=S(=O)(c1cccc2cnccc12)N1CCCNCC1; value = 91.7%
Structure (SMILES) = O=C(CCCc1ccc(-c2ccccc2F)cc1)Nc1ccc(O)cc1; value = 99.2%
Structure (SMILES) = OCC(O)CCON=C1C(c2c(O)[nH]c3ccccc23)=Nc2ccccc21 (centres unmarked); value = 33.3%
Structure (SMILES) = Nc1[nH]nc2nc3ccccc3nc12; value = 96.5%
Structure (SMILES) = COc1cc2nccc(Oc3ccc(NC(=S)NC(=O)c4ccccc4C)cc3)c2cc1OC; value = 93%
Structure (SMILES) = COc1cc2ncnc(Nc3ccc(Oc4ccccc4)cc3)c2cc1OC; value = 101%
Structure (SMILES) = Cc1cccc(-c2[nH]c(C(C)(C)C)nc2-c2ccc3c(c2)OCO3)n1; value = 99.3%
Structure (SMILES) = Cn1c2ccccc2c2c3c(c4c5ccccc5n(CCC#N)c4c21)CNC3=O; value = 26.3%
